Measurements pooled from the literature.
Every numbered part comes from another study and shows a few of its results, in no order.

Block 1
Target: Transcriptional repressor CTCF (CTCF, Homo sapiens, UniProt P49711, residues 1-727, full length assumed)
Technique: protein-binding microarray
Form: double-stranded DNA, one strand shown
Sample: in vitro
Concentration: not given
Notes: k-mer, scored over probes, only values ≥0.25
Direction: higher = stronger binding
Target sequence (chain): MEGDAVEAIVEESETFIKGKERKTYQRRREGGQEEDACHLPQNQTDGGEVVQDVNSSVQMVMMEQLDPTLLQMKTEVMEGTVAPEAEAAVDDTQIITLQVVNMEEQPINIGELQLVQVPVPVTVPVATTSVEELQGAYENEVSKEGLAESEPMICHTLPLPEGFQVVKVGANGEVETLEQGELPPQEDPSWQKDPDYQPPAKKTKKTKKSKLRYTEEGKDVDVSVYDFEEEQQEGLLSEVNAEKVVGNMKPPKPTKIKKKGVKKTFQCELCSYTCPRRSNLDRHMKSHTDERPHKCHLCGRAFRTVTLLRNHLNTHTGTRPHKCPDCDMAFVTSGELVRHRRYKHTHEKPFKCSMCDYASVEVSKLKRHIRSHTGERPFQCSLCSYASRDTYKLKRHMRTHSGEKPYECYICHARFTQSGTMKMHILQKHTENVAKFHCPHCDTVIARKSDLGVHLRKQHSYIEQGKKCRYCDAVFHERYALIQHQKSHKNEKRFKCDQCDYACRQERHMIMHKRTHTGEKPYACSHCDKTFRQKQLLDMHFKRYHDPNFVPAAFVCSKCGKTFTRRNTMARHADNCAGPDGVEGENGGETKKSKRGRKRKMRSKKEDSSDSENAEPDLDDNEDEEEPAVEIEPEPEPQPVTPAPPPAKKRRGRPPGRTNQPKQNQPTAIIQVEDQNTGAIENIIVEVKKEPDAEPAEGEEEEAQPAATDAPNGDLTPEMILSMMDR
Strand	E-score
TAGTGCAA	0.298
CATATAAA	0.364
ATTAACGA	0.266
AATTAATA	0.379
ACAGGTAT	0.267
AACATAAA	0.301
TATACATA	0.287
CACTGCGC	0.319

Block 2
Target: Histone acetyltransferase KAT6A, both winged helices, GST fusion (KAT6A, Homo sapiens, UniProt Q92794, residues 1-181)
Technique: protein binding microarray
Form: double-stranded DNA, one strand shown
Sample: in vitro
Concentration: not given
Notes: 8-mer, flanks averaged, mean of 2 arrays, mostly near background
Baseline: not given
Direction: higher = stronger binding
Residues (chain): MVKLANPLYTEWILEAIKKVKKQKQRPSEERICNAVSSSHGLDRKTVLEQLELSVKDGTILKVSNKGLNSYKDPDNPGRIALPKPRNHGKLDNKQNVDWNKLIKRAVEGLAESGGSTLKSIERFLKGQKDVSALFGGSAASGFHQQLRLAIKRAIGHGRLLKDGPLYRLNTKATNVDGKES
Strand	E-score
AAACCAGG	-0.0937
CGGAATCA	0.214
GGTCGCAA	0.143
AAGGACAA	-0.128
AGGCTTGA	-0.31
CCGGTTTA	0.134
GAAGTTCA	-0.139
AGTGCTAT	-0.257
CCGAGCGC	0.323
CCACAGGA	-0.162
CTACATTA	-0.176

Block 3
Target: Ras GTPase-activating protein-binding protein 1, RRM domain (G3BP1, Homo sapiens, UniProt Q13283)
UniProt Q13283, sequence (whole entry, looked up): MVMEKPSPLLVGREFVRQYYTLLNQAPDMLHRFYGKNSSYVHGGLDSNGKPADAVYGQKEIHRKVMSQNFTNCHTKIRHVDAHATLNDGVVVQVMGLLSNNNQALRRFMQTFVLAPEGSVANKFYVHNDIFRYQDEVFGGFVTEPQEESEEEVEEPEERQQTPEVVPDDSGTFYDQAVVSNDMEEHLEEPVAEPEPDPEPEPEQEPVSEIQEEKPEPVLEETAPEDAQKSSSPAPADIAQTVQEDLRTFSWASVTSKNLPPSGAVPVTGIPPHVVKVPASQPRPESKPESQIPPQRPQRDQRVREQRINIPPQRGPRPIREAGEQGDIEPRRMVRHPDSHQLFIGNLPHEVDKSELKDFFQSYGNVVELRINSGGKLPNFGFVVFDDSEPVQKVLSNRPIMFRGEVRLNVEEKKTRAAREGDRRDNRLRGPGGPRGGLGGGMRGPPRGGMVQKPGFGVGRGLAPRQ
Technique: RNA Bind-n-Seq
Form: RNA
Sample: in vitro
Concentration: 1 µM
Notes: whole 134-nt RNA, ends assumed
Together with: 150 mM KCl
Baseline: input library
Direction: higher = stronger binding
All sequences stand within: GGGAGUUCUACAGUCCGACGAUC … UGGAAUUCUCGGGUGUCAAGG
Strand	log2 enrichment
GUCCUGUGCUACACAUCGUAUGUACCGAAUCGGGGUUUGGGGAAAAAGGGGAAAGGGGAAAGUAUUAUGUUACGCCGUUCGGAUCUGCAC	1.78
UCCUCCCUGGCUUCAGCCAGUCCCUGACGCUGAGCACUGGCUUCCGAGUCAUCAAGAAGAAGCUGUACAGCUCGGAACAGCUGCUCAUUG	-0.177
CACAGACAACAAACACCCACACAGACACAGAGGGAAGGGGUUGGGAUGGGGACAGGGUGCACAGCAGGGCGGGGUAGGACCCCAGCCCCU	-0.225
GUCCUGUGCUACACAUCGUAUGUACCGAAUCAAACCCCCAAAUUUAAAUUUUUUUAAAAAAGUAUUAUGUUACGCCGUUCGGAUCUGCAC	-0.575
UGGGAGGUGGAUUUUGUUUAUUUAUUUAGCUCAUUUCCAGGGGUGGGAAUUUUUUUUUAAUAUGUGUCAUGAAUAAAGUUGUUUUUGAAA	1.39
UCAAGUCCUGUGCUACACAUCGUAUGUACCGAAUCGGUUUGGGGUUUGGUUUGGGAAAGUAUUAUGUUACGCCGUUCGGAUCUGCACUUC	-0.235
ACCAUGCAGGUGGGCAUCUUUGGGAAGUGGGGCGAGGGGGGGAUAGGGAGGGGGGUAACACUUUGGGAACAGGUGGUCCCAGGUCGUUUC	-0.452

Further values, each from its own experiment
Molecule	target	test	system	setting	scale	quantity	value
PhoQ, residues 284 288 289 292 302 303 SQSLSM	PhoP, residues 12 14 15 18 19 LHHSG (Escherichia coli, UniProt P23836)	Sort-seq, refers to: YFP reporter	E. coli	PhoQ-PhoP variant library, together with: 10 µM Mg2+	baseline: high Mg2+ state, higher = stronger signaling	fold induction	16
